Measurements pooled from the literature.
Each numbered part is a random draw from the data of one study; scales do not carry over between parts.
UniProt P21127, sequence (whole entry, looked up): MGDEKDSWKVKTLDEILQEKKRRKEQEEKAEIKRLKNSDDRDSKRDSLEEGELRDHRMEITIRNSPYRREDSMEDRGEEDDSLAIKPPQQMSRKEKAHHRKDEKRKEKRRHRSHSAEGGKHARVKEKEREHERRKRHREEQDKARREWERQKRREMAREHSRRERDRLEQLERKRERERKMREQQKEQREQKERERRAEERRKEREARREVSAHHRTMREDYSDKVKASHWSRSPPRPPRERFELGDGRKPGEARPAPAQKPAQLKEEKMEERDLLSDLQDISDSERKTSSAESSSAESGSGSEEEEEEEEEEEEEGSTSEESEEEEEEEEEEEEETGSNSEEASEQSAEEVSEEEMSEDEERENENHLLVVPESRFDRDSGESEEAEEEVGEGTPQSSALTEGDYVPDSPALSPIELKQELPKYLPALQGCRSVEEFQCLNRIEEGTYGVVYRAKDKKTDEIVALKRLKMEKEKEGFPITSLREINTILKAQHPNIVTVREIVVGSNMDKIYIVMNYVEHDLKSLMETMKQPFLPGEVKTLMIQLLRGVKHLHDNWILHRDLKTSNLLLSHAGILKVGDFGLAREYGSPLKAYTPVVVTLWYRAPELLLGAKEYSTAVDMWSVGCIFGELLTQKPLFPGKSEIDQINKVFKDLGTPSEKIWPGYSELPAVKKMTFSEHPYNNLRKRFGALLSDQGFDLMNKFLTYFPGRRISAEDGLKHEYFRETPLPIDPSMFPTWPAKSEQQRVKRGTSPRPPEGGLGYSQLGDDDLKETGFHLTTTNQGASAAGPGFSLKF
UniProt O94804, sequence (whole entry, looked up): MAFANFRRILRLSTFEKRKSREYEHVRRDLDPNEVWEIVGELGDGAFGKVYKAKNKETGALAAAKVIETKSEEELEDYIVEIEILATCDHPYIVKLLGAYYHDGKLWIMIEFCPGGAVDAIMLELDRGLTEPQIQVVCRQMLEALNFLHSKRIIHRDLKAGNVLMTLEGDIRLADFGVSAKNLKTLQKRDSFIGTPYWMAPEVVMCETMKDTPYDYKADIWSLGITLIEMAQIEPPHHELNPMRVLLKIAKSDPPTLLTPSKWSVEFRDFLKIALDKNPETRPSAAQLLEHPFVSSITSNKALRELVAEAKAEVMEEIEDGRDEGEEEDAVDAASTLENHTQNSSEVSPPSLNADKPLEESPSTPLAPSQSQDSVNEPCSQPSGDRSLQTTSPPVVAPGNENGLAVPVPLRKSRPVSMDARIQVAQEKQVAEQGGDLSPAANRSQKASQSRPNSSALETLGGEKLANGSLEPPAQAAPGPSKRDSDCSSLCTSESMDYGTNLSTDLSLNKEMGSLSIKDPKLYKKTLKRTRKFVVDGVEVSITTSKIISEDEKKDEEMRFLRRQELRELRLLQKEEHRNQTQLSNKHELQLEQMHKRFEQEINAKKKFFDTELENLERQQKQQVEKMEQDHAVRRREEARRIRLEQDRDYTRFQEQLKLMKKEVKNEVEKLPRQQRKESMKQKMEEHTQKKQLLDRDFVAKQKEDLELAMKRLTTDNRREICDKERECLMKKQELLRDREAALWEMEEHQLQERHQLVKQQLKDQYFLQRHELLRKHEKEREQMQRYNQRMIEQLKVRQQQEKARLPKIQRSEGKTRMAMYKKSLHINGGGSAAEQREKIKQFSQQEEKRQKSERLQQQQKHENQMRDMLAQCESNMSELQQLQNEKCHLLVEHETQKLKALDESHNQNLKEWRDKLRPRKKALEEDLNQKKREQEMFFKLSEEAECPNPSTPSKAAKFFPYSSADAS
UniProt Q9UIK4, sequence (whole entry, looked up): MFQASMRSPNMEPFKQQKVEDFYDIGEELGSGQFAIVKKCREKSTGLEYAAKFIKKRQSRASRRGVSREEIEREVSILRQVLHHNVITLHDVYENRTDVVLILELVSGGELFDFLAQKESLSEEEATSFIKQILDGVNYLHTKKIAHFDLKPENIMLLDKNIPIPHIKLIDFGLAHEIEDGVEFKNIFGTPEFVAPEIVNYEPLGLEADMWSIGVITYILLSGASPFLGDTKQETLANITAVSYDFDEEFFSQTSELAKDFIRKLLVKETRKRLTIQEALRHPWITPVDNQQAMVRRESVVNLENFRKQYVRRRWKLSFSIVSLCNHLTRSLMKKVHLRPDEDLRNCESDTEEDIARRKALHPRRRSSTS
UniProt O24410, sequence (whole entry, looked up): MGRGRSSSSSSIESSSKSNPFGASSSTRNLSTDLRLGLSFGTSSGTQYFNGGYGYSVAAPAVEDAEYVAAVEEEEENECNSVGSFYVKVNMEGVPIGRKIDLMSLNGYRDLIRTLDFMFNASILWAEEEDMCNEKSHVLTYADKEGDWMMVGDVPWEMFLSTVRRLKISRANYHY
UniProt Q05397, sequence (whole entry, looked up): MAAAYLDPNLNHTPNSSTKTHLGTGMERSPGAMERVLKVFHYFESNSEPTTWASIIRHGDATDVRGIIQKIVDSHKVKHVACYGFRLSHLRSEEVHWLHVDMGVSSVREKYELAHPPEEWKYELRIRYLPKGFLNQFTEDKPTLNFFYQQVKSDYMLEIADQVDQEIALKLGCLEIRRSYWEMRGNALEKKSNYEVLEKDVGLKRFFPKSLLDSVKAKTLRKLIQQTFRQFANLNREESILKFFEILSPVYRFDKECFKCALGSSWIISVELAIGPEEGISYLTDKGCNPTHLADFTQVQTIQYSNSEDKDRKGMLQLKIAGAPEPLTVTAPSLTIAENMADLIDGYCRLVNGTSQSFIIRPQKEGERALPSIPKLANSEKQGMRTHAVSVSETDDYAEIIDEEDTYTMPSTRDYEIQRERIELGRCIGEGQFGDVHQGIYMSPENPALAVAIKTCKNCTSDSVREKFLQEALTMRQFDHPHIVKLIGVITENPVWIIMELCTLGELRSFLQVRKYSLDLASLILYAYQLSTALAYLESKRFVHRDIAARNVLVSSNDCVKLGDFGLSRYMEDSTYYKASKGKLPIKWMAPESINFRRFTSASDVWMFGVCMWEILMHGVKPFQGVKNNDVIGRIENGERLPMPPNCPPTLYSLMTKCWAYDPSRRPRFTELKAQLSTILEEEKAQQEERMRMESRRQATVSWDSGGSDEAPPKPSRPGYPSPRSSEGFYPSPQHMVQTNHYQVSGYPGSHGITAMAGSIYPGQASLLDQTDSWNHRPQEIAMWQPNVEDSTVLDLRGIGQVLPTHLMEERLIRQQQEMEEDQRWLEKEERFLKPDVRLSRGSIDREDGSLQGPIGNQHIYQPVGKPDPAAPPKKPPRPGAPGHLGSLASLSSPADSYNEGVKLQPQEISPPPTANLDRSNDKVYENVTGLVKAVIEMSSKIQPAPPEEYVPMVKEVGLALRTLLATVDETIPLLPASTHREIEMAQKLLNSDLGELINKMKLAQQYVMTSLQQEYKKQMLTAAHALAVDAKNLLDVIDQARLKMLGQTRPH
UniProt Q15831, sequence (whole entry, looked up): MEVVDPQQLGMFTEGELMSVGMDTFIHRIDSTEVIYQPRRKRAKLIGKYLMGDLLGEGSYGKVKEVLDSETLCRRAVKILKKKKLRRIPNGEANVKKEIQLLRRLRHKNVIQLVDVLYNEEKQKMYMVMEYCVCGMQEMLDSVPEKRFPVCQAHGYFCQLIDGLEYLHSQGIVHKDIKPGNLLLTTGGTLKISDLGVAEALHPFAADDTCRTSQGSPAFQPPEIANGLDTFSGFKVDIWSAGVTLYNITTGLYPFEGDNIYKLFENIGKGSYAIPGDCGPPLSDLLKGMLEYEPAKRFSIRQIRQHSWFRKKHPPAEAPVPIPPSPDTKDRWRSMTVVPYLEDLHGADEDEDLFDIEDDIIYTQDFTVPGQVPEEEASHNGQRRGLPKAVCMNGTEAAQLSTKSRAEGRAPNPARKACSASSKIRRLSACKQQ
UniProt P11309, sequence (whole entry, looked up): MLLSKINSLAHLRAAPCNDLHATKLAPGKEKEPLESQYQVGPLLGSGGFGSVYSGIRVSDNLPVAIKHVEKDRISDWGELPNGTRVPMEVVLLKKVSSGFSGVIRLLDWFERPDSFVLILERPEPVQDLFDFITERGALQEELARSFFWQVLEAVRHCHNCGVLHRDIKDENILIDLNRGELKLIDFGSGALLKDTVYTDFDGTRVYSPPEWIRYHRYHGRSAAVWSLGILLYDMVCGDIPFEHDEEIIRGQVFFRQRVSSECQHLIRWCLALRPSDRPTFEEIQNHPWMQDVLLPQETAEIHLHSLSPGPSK
UniProt Q38828, sequence (whole entry, looked up): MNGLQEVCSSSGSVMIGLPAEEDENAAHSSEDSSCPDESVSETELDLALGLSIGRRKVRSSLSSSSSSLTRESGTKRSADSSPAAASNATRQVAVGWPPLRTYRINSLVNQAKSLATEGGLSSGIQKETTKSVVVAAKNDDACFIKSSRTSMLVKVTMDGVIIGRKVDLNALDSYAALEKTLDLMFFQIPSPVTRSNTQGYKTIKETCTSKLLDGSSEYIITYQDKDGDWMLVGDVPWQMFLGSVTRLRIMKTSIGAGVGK

Block 1 — technique: two-hybrid; direction: higher = firmer interaction; measurement: positive tests
Substance: IAA7 (Arabidopsis thaliana, UniProt Q38825)
UniProt Q38825, sequence (whole entry, looked up): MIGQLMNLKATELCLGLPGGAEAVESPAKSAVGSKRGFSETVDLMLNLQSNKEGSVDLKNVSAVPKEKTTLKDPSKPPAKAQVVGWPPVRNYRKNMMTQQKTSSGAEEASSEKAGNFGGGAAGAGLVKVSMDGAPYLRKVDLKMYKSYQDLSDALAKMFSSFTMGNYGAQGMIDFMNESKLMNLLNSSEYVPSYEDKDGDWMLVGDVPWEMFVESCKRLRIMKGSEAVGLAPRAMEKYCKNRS
ARF6 790-935 (Arabidopsis thaliana, UniProt Q9ZTX8); relative to: out of 4 tests: 4
IAA20 (Arabidopsis thaliana, UniProt O24410); weak activation fusion; relative to: out of 4 tests: 2
ARF12 500-593 (Arabidopsis thaliana, UniProt Q9XID4); relative to: out of 4 tests: 1
ETT (Arabidopsis thaliana, UniProt O23661); relative to: out of 4 tests: 0
ARF13 (Arabidopsis thaliana, UniProt Q9FX25); relative to: out of 4 tests: 0
IAA19 (Arabidopsis thaliana, UniProt O24409); relative to: out of 4 tests: 1
IAA9 (Arabidopsis thaliana, UniProt Q38827); relative to: out of 2 tests: 0
IAA10 (Arabidopsis thaliana, UniProt Q38828); relative to: out of 4 tests: 3

Block 2 — observed: enzyme activity; mode: inhibitor; concentration: 0.5 µM; relative to: control; measurement: remaining activity
SMILES: CN1CCN(c2ccc3nc(-c4c(N)c5c(F)cccc5[nH]c4=O)[nH]c3c2)CC1
Calcium/calmodulin-dependent protein kinase kinase 2 (CAMKK2, Homo sapiens, UniProt Q96RR4): 85.9%
G protein-coupled receptor kinase 3 (GRK3, Homo sapiens, UniProt P35626): 97.5%
Mitogen-activated protein kinase kinase kinase 3 (MAP3K3, Homo sapiens, UniProt Q99759): 46.5%
Calcium/calmodulin-dependent protein kinase type II subunit delta (CAMK2D, Homo sapiens, UniProt Q13557): 56.9%
Serine/threonine-protein kinase OSR1 (OXSR1, Homo sapiens, UniProt O95747): 98.7%
TGF-beta receptor type-1 (TGFBR1, Homo sapiens, UniProt P36897): 99.3%
TGF-beta receptor type-2 (TGFBR2, Homo sapiens, UniProt P37173): 109%
cAMP-dependent protein kinase catalytic subunit alpha (PRKACA, Homo sapiens, UniProt P17612): 101%
Death-associated protein kinase 2 (DAPK2, Homo sapiens, UniProt Q9UIK4): 82.3%
Inhibitor of nuclear factor kappa-B kinase subunit beta (IKBKB, Homo sapiens, UniProt O14920): 87.8%
cGMP-dependent protein kinase 1, isoform beta (PRKG1, Homo sapiens, UniProt Q13976): 84.5%
Protein kinase C beta type, isoform beta-I (PRKCB, Homo sapiens, UniProt P05771): 99.2%
Serine/threonine-protein kinase STK11 (STK11, Homo sapiens, UniProt Q15831): 104%
Protein kinase C alpha type (PRKCA, Homo sapiens, UniProt P17252): 83.8%
Cyclin-dependent kinase 4, with cyclin D1 (CDK4, Homo sapiens, UniProt P11802): 79.5%
Serine/threonine-protein kinase Nek2 (NEK2, Homo sapiens, UniProt P51955): 104%
Serine/threonine-protein kinase 10 (STK10, Homo sapiens, UniProt O94804): 41.6%
Death-associated protein kinase 1 (DAPK1, Homo sapiens, UniProt P53355): 108%
Serine/threonine-protein kinase Chk2 (CHEK2, Homo sapiens, UniProt O96017): 84.5%
STE20/SPS1-related proline-alanine-rich protein kinase (STK39, Homo sapiens, UniProt Q9UEW8): 92.3%

Block 3 — technique: RNA Bind-n-Seq; form: RNA; matrix: in vitro; concentration: not given; relative to: input RNA pool; direction: higher = stronger binding; measurement: bound/input enrichment
Target: RING finger protein unkempt homolog, zinc fingers 1-6, GST-SBP tag (UNK, Homo sapiens, UniProt Q9C0B0, residues 30-357)
UniProt Q9C0B0, sequence (30-357, looked up): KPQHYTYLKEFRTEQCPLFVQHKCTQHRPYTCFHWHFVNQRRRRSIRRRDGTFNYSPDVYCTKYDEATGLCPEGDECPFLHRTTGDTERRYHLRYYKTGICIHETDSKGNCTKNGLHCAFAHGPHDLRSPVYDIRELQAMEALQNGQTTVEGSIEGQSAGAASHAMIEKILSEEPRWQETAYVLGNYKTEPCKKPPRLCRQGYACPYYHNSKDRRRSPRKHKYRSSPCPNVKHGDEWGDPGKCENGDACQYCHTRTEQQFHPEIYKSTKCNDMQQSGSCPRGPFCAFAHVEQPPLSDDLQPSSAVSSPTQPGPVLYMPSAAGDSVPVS
Setting: RNA with constant flanks, human-mouse chimeric sites, ends assumed
Shared flanks, not repeated: GGGAGUUCUACAGUCCGACGAUC … CAACAGAGGAUUGAGCAUCA
GAGCCCAGCCGGCAGUUUGUAAAGGACUCCAUUCGGCUGGUUAAAAGAUGCACCAAACCCGACAGAAAAGAAUUCCAGAAGAUUGCCAUGGCUACAGCUAUAGGAUUUGCUAUCAUGGGA: 0.264 ratio
GUAGCUGGCCAUUAGGAAAUGCUGGUAAUUUCAGUCACUUGCUGAUGACUUCUGAUGUCCCAGCAAAUGUUGGCAUUGUUGACUGCUGAGAAGAUACUUCUGAGGACCCACGUCUAAGGU: 0.198 ratio
GACCCACAGUGGUCUGAGGAGCAACUCAUUGCUGCAAAAUUCUGUUUUGCUGGCCUUGUUAUAGGGCAGACUGAAGUGGAUAUCAUGAGUCAUGCCACACAAGCUAUUUUUGAAAUUCUG: 0.201 ratio
GAUAAGAAAAGCUUGUUGGAGACCCGAUUGCAUGUCACUGGUAGAGACCUGAGGUGUAAAAUAGCUGAAACUUUCGGAUUUCAAGAAAAUUACAUCAAGAUCGUAAUAAAUAAGAAACAG: 0.311 ratio
UGUGAACUGUCUCUUGAGAUCUAAAAAAAACAUGAUUUUUCCUGGCACAUAUUCCAAAGCAAAGACUUUGUUGCCUGCUGCUUAUUGUCUAAUUUACAGGGAUAUUUAAUUUUGUCAGGU: 0.25 ratio
CACAGAGCAGCACCUACCCCCUCCUCCUUUCCACACCUGCAAACUCUUUUACUUGGGCUGCAUAGUUAGUGUAAUUACAUCUCAGCUUUGAGGGCUCCUGUGGCAAAUUCCCGGAUUAAA: 3.05 ratio
GAGUCGAUUAUGGAAACAACAAUUCGUUAUCUUGCAGCCUCAGUGUUCACUUGCUUGGCGAUAGCAUUGGGGUUUUAUAGGUUCUGGAAGGAGAACUGACGAUGAUGUCCUGCUGUGUGC: 0.143 ratio
GAUAAGAAAAGCUUGUUGGAGACCCGCUUGCAUGUCACUGGUAGAGACCUGAGGUGUCAAAUAGCUGAAACUUUCGGAUUUCAAGAAAAUUACAUCAAAAUUGUCAUAAAUAAGAAGCAG: 0.529 ratio

Block 4 — observed: cell-free assay; technique: competition with immobilised ligand; concentration: 1 µM; measurement: remaining binding
Compound: CC1=C(C#N)[C@@H](c2ccc3[nH]nc(C)c3c2)C(C#N)=C(c2ccc(Cl)cc2)N1
Phosphatidylinositol 4,5-bisphosphate 3-kinase catalytic subunit alpha isoform (PIK3CA, Homo sapiens, UniProt P42336, E545K): 74.9%
Serine/threonine-protein kinase 24 (STK24, Homo sapiens, UniProt Q9Y6E0): 100%
Cyclin-dependent kinase 11B (CDK11B, Homo sapiens, UniProt P21127): 91.6%
Phosphatidylinositol 4-kinase beta (PI4KB, Homo sapiens, UniProt Q9UBF8): 95.1%
Megakaryocyte-associated tyrosine-protein kinase (MATK, Homo sapiens, UniProt P42679): 100%
Glycogen synthase kinase-3 alpha (GSK3A, Homo sapiens, UniProt P49840): 100%
Focal adhesion kinase 1 (PTK2, Homo sapiens, UniProt Q05397): 100%
Protein-tyrosine kinase 2-beta (PTK2B, Homo sapiens, UniProt Q14289): 100%
Serine/threonine-protein kinase 17B (STK17B, Homo sapiens, UniProt O94768): 100%
Serine/threonine-protein kinase B-raf (BRAF, Homo sapiens, UniProt P15056, V600E): 100%
Leucine-rich repeat serine/threonine-protein kinase 2 (LRRK2, Homo sapiens, UniProt Q5S007, G2019S): 79.5%
Ribosomal protein S6 kinase alpha-5, C-terminal kinase domain (RPS6KA5, Homo sapiens, UniProt O75582): 100%
Vascular endothelial growth factor receptor 3 (FLT4, Homo sapiens, UniProt P35916): 89.5%
Serine/threonine-protein kinase Chk1 (CHEK1, Homo sapiens, UniProt O14757): 100%
Insulin-like growth factor 1 receptor (IGF1R, Homo sapiens, UniProt P08069): 100%
Cyclin-dependent kinase 5 (CDK5, Homo sapiens, UniProt Q00535): 100%
Phosphatidylinositol 4,5-bisphosphate 3-kinase catalytic subunit beta isoform (PIK3CB, Homo sapiens, UniProt P42338): 100%
Serine/threonine-protein kinase pim-1 (PIM1, Homo sapiens, UniProt P11309): 100%

Excerpt of the above (block 3):
GAGCCCAGCCGGCAGUUUGUAAAGGACUCCAUUCGGCUGGUUAAAAGAUGCACCAAACCCGACAGAAAAGAAUUCCAGAAGAUUGCCAUGGCUACAGCUAUAGGAUUUGCUAUCAUGGGA: 0.264 ratio
GUAGCUGGCCAUUAGGAAAUGCUGGUAAUUUCAGUCACUUGCUGAUGACUUCUGAUGUCCCAGCAAAUGUUGGCAUUGUUGACUGCUGAGAAGAUACUUCUGAGGACCCACGUCUAAGGU: 0.198 ratio
GACCCACAGUGGUCUGAGGAGCAACUCAUUGCUGCAAAAUUCUGUUUUGCUGGCCUUGUUAUAGGGCAGACUGAAGUGGAUAUCAUGAGUCAUGCCACACAAGCUAUUUUUGAAAUUCUG: 0.201 ratio
GAUAAGAAAAGCUUGUUGGAGACCCGAUUGCAUGUCACUGGUAGAGACCUGAGGUGUAAAAUAGCUGAAACUUUCGGAUUUCAAGAAAAUUACAUCAAGAUCGUAAUAAAUAAGAAACAG: 0.311 ratio
UGUGAACUGUCUCUUGAGAUCUAAAAAAAACAUGAUUUUUCCUGGCACAUAUUCCAAAGCAAAGACUUUGUUGCCUGCUGCUUAUUGUCUAAUUUACAGGGAUAUUUAAUUUUGUCAGGU: 0.25 ratio
CACAGAGCAGCACCUACCCCCUCCUCCUUUCCACACCUGCAAACUCUUUUACUUGGGCUGCAUAGUUAGUGUAAUUACAUCUCAGCUUUGAGGGCUCCUGUGGCAAAUUCCCGGAUUAAA: 3.05 ratio
GAGUCGAUUAUGGAAACAACAAUUCGUUAUCUUGCAGCCUCAGUGUUCACUUGCUUGGCGAUAGCAUUGGGGUUUUAUAGGUUCUGGAAGGAGAACUGACGAUGAUGUCCUGCUGUGUGC: 0.143 ratio
GAUAAGAAAAGCUUGUUGGAGACCCGCUUGCAUGUCACUGGUAGAGACCUGAGGUGUCAAAUAGCUGAAACUUUCGGAUUUCAAGAAAAUUACAUCAAAAUUGUCAUAAAUAAGAAGCAG: 0.529 ratio
